# Assay results gathered from unrelated publications.
# Parts stem from different laboratories: compare values within a part only.

# Block 1 — cell line: HEK-293T; organism: VSV pseudotyped with SARS-CoV-2 spike; tested at: 10 µM; time: 16 h
SMILES,pseudovirus infection [%]
COc1cc2c(c(OC)c1OC)-c1ccc(OC)c(=O)cc1[C@@H](NC(C)=O)CC2,21.3
CC1(C)C[C@@H]1C(=O)N/C(=C\CCCCSC[C@H](N)C(=O)O)C(=O)O,86.8
OCCOCCN1CCN(C2=Nc3ccccc3Sc3ccccc32)CC1,123

# Block 2 — technique: protein-binding microarray; molecule type: hairpin DNA; matrix: in vitro; tested at: not given; baseline: not given; direction: higher = stronger binding
# Target: Cyclic AMP-dependent transcription factor ATF-1, full length (ATF1, Homo sapiens, UniProt P18846, residues 1-271)
# Setting: whole hairpin DNA, median over replicate spots
# Construct (chain): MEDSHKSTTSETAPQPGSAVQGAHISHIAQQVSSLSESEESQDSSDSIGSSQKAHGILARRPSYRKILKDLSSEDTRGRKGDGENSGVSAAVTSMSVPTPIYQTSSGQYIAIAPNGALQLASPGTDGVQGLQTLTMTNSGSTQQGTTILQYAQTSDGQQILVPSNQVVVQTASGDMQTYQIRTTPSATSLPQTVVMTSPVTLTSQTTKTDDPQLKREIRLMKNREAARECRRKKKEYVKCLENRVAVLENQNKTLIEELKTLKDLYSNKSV
Sequence,median fluorescence [a.u.]
GAGGCCGACGACGTCGTGCCTCCTGGCACGACGTCGTCGGCCTCACACTC (5mC at 15 29),4160
GAGGCCGGCGGACGTCAGCCTCCTGGCTGACGTCCGCCGGCCTCACACTC (5mC at 35),4850
GAGGCCGGCTGACGTGAGCCTCCTGGCTCACGTCAGCCGGCCTCACACTC,5360
GAGGCCGGCAGACGTCAGCCTCCTGGCTGACGTCTGCCGGCCTCACACTC,5030

# Block 3 — mode: inhibitor; tested at: 20 µM
# Target: Replicase polyprotein 1ab, nsp13 helicase (rep, Severe acute respiratory syndrome coronavirus 2, UniProt P0DTD1)
Compound,inhibition [%]
O=C(CSc1nc2c(c(=O)n1-c1ccccc1)SCC2)Nc1ccc(-c2ccccc2)cn1,2.13
C[C@]12CCC(=O)C=C1CC[C@@H]1[C@@H]2C(=O)C[C@]2(C)C(=O)CC[C@@H]12,-3.13
Cc1ccccc1C(=O)Nc1ccc(C(=O)N2CCCC(N(C)C)c3ccccc32)cc1 (stereo not drawn),6.38
CC(C)C[C@H](CN)CC(=O)O,4.64
Cc1cccc(C(=O)NCN2CCN(c3ccccc3C#N)CC2)c1,5.34
CCOc1ccccc1OCC1CNCCO1 (stereo not drawn),-3.15
c1ccc2cc(C3=NCCN3)ncc2c1,5.72
CCC(Oc1ccc(Cl)cc1)C(=O)OC1C[C@H]2CC[C@@H](C1)N2C (stereo partly drawn),-2.78
CCCCCCCC/C=C\CCCCCCCC(=O)NCc1ccc(O)c(OC)c1,-2.76
CC1=C(CC(=O)O)c2cc(F)ccc2/C1=C\c1ccc([S+](C)[O-])cc1 (stereo not drawn),23
COc1ccc(C2CNC(=O)C2)cc1OC1CCCC1 (stereo not drawn),2.54
O=C(O)[C@@H](S)[C@@H](S)C(=O)O,99.9
c1ccc(-c2n[nH]c3c2oc2ccccc23)cc1,5.67
COc1cc2nc(C3CC3)nc(N3CCN(c4ccccc4OC)CC3)c2cc1OC,0.45
COC1=CC(=O)C[C@@H](C)[C@]12Oc1c(Cl)c(OC)cc(OC)c1C2=O,6.05
O=C(NCCCCCCNC(=O)ON=C1CCCCC1)ON=C1CCCCC1,1.58
CCc1nc(-c2cccc(C)c2)c(-c2ccnc(NC(=O)c3ccccc3)c2)s1,7.95
CCCCCCCCCCCCCCCCCCCCCCO,6.61
COC(=O)[C@H](NC(=O)c1cc(-c2ccccc2)nc2ccccc12)c1ccccc1,0.19
O=C(/C=C/c1ccc(O)c2c1[C@H](C(=O)O[C@H](Cc1ccc(O)c(O)c1)C(=O)O)[C@@H](c1ccc(O)c(O)c1)O2)O[C@H](Cc1ccc(O)c(O)c1)C(=O)O,10.1
CCCCCCCCCCCC1=C(O)C(=O)C=C(O)C1=O,-17.6
O=C(NCCN1CCC2(CC1)C(=O)NCN2c1cccc(F)c1)c1ccc2ccccc2c1,-1.87
CC(=O)Nc1ccc(C(=O)O)cc1,0.97
O=C(Nc1ccc(CN2CCOCC2)cc1)c1ccc(-c2cccc(Cl)c2)o1,-3.49

# Block 4 — observed: enzyme activity; mode: inhibitor; tested at: 20 µM; setting: hit confirmation
# Target: Replicase polyprotein 1ab, main protease (rep, Severe acute respiratory syndrome coronavirus 2, UniProt P0DTD1)
SMILES,inhibition
COc1ccc2[nH]c3c(S)ncnc3c2c1,33.8%
Oc1cc(O)c2cc(O)c(-c3cc(O)c(O)c(O)c3)[o+]c2c1,27.5%
Cc1ccc2c(c1)C1CN(C)CCC1N2 (stereo not drawn),-10.6%

# Block 5 — technique: RNA Bind-n-Seq; molecule type: RNA; matrix: in vitro; tested at: 15 pmol; setting: 4-mer, random 30-nt RNA, single round; with: DMSO vehicle, 2 mM AMP-PNP; baseline: input library; direction: higher = stronger binding
# Target: Eukaryotic initiation factor 4A-I (EIF4A1, Homo sapiens, UniProt P60842, residues 1-406, full length assumed)
# UniProt P60842, sequence (whole entry, looked up): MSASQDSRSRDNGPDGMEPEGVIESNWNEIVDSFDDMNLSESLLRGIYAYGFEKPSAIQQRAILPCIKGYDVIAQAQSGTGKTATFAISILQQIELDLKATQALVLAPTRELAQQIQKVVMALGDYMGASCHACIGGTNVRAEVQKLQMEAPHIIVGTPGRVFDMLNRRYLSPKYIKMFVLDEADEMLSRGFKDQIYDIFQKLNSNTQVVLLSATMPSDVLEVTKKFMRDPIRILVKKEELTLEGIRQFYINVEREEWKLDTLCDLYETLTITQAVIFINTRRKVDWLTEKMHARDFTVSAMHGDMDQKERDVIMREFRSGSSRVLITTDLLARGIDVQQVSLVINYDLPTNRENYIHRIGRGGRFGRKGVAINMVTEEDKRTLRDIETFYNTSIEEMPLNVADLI
Sequence,4-mer enrichment
AUAU,0.859 fold
GACA,0.999 fold
UAUC,0.835 fold
GCAC,0.864 fold
CUAC,0.921 fold
CGGA,0.916 fold

# Block 6 — technique: RNA Bind-n-Seq; molecule type: RNA; matrix: in vitro; tested at: 365 nM; baseline: no-protein control; direction: higher = stronger binding
# Target: RNA binding protein fox-1 homolog 2, RRM domain, GST-SBP tag (RBFOX2, Homo sapiens, UniProt O43251-10, residues 100-194)
# Setting: natural RNA segment, single round, ends assumed
# All sequences stand within: GGGAGUUCUACAGUCCGACGAUC … UGGAAUUCUCGGGUGCCAA
# Residues (chain): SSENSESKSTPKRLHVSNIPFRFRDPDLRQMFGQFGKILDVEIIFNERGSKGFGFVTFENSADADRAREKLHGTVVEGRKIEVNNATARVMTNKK
Sequence,RBNS enrichment (R)
GAAAUGAAAAUAUCCUUUUUUAAAAUAUGUGGAAGUAAUUUGGGUAUAAUUAGUUUUUUUCUACCUUUUGGAAAGUUGUUUUUUUGUUGUUUUUUUUUUUUUCCCAGAUG,1.88
GGUUCUCGUAAUCGCUCGGUGGGAAAUCAUGGCUCUGCCGUCCUGCCUCUCUGUGGCCGUGGGUUCACGUGGCCUCUGCGGUGAGUCUCCAAGUUUCUGCCUAGGCGCCU,0.176
AAGCCCCUCGCUCUCCCCUCUCUGUUUUCCCAUUAAUCAAAGCCAUGUCUAGAAUGGGCCAGCCACCUUGCAGUAAAAUCAAUGAGUUCUGAAGCAACCUUCAAUUUUCA,0.465
CUCUGUAUUUGCCCAGGAUGGAGCACUCUGUCCCUGUCACAGGUGUGGUGAUUCCUGAGACUGGCAACAUGCCACAGAGUUGAAAUAAUACUCAGAACUCAGGAGCCUUG,0.346
CUGGCGAGGUGGUAUUAGCCCAUCUUACAGAUGGGAAAACUGAAGUUCUGUGCUAGAGAUUGAGAACAAUGUAAAGACUUGAGGCUUAGGUAGUGCUCUAUCUGGUCAGG,0.375
AGAGGAGGACGUGCAGCAUGGUGGGAAACGGGGACACCACCUCCCAGGACGACUGUGUCAGCAAAGAGCGCAGCUCCUCCAGGUGACCCAGCAAGGCUGUUGUCUGUAUG,0.62
GGGCAAGUUCAUUGUGCUACCCUCCCAAUUCCCCCAUUAUGGAGUAACCAGUAUUAUUCAGUGAGCUAUGGGGUAGUGUUUCACUCCUUGCUUCAAUAUGGUUUUUUCCU,0.405
GUGGAGGAUUCGGAACAAGUCAUGGAGAGACUGUCCGGGUCCGCUCCUUGUGAACUGUGCAGAAGGAGUGAUCCCAGCAUCGGCAAGCGAGGGAGAAGACUGCACGAGAG,1.75
